Measurements of several laboratories.
Parts stem from different laboratories: compare values within a part only. Changes are numbered by the printed parent chain.

Series 1
Target: CDC34 UBC core domain (UniProt P49427)
UniProt P49427, sequence (whole entry, looked up): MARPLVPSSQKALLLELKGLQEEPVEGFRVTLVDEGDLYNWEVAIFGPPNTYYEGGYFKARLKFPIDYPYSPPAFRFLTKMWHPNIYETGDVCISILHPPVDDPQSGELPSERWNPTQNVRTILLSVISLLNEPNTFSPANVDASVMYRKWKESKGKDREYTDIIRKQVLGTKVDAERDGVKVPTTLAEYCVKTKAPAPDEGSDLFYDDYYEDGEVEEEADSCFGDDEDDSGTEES
Technique: yeast two-hybrid
Sample: yeast
Setting: mostly zero background
Baseline: not given
Direction: higher = stronger interaction
B1: MYCBP2 RING domain (UniProt O75592); chain TSLKQDADDMCMICFTEALSAAPAIQLDCSHIFHLQCCRRVLENRWLGPRITFGFISCPICKNKINHIVLKD
| Sequence | lacZ reporter activity |
| --- | --- |
| LDAASGHPLVCPLCHGQYERPCLLDCFHDFCTGCLRGRATDGRLSCPLCQHQTLVKGPSG (Rnf207 RING domain (UniProt Q3V3A7)) | 0 |
| YPEEVDDDLICHICLQALLDPLDTPCGHTYCTLCLTNFLVEKDFCPMDRKPLVLQHCKK (LNX1 RING domain (UniProt Q8TBB1)) | 0 |
| B1 (MYCBP2 RING domain) | 0 |
| YCEMGSTFQLCKICAENDKDVKIEPCGHLMCTSCLTAWQESDGQGCPFCRCEIKGTEPII (CBLB RING domain (UniProt Q13191)) | 0 |
| RYRQMEERITCPICIDSHIRLVFQCGHGACAPCGSALSACPICRQPIRDRIQIF (MIB2 RING domain (UniProt Q96AX9)) | 0 |

Series 2
Target: ABI1, truncated, D143A, DHFR fusion (Arabidopsis thaliana)
Technique: DHFR PCA, deep sequencing
Sample: yeast
Setting: methotrexate growth selection, single substitutions
Together with: (+)-ABA 58 µM
Baseline: wild-type fitted maximum
Direction: higher = stronger binding
Starting sequence: PYL1, truncated, DHFR fusion (Arabidopsis thaliana); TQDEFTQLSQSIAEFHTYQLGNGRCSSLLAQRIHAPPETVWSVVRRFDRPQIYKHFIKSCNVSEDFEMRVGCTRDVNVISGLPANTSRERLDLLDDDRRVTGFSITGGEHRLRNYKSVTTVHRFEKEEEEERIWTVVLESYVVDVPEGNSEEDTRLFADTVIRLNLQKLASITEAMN; partner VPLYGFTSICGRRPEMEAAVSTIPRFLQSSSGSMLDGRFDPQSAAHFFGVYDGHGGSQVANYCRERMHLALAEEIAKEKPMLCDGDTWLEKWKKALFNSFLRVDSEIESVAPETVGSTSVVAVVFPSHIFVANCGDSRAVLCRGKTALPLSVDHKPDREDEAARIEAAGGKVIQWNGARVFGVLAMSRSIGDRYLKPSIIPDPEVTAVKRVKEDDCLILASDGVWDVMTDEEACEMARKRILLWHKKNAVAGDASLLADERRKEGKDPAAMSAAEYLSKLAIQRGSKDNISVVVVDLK
| Change | relative binding score |
| --- | --- |
| G21M | 85.7% |
| E151N | 75.6% |
| T135R | -10.4% |
| T154W | -3.44% |
| Q2K | 77.3% |
| R88Q | 78% |
| L156A | 82.8% |
| E131F | 87% |
| V62G | 20.2% |
| R74K | 7.47% |
| F157M | 61% |
| Y141T | -2.88% |

Series 3
Target: Phosphate system positive regulatory protein PHO4, full length, GST-tagged (PHO4, Saccharomyces cerevisiae, UniProt P07270, residues 1-312)
Technique: competition protein-binding microarray
Molecule type: double-stranded DNA, one strand shown
Sample: in vitro
Tested at: 2 µM
Setting: whole 60-bp probe, lowest competitor level
Together with: Cbf1 competitor, 0.05 µM
Direction: higher = stronger binding
Constant ends, left off below: … GTCTTGATTCGCTTGACGCTGCTG
Construct (chain): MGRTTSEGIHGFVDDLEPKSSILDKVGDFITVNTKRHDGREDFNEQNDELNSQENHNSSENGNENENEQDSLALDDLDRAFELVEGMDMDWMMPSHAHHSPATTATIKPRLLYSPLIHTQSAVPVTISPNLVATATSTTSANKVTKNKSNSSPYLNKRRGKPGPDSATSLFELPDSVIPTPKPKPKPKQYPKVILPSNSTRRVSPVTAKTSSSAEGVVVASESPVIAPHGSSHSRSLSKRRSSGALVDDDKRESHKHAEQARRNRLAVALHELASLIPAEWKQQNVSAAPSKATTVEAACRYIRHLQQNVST
| Sequence | fluorescence intensity [a.u.] |
| --- | --- |
| CATACCCAACCTTTTCACGTGGGATAAGATATTTGT | 14300 |
| AGAATCAAAGCTCACCACGTCATAGTTGCGAAAGCC | 5200 |
| GAGAATGCCTTTGTCCATGTGATAAACCGTCCAAAA | 6560 |
| ACCTCAAGTGATGGGTACGTGGGTAGTCAGGCTTCC | 7540 |
| CATACCCAACCTTGACCTGTGGGTGAAGATATTTGT | 4340 |
| AAATTACTAAGTTGTCACATCACTTACCCCGTATGA | 3860 |
| AAGAAATATCTGTGAAATGTGACGCTTATAGCATAC | 4850 |
| CATACCCAACCTTGCGACGTGGGTGAAGATATTTGT | 7580 |
| ATGAGAAGCGCAAATGTCGTGATGGCAATAGCCCGG | 4830 |
| CATACCCAACCTTGTCACAAAACTTAAGATATTTGT | 3200 |
| TGCGCAACAACTTGCATGGTGGGTGTATGTCTAGAA | 5580 |
| CATACCCAACCTTGAGACGTGGGTGAAGATATTTGT | 7020 |
| TGTTTACAGCCGAGTCACGGGATATTGGTCTGTGAA | 4780 |
| GCTACCCCGGCCTGCCGTGTGGCTCTCTGTGCGAAG | 5430 |
| TGGCGGCGGGATCTACACGTGCGCCTCGGGAAGGCG | 16400 |

Series 4
Target: Histone acetyltransferase KAT6A, winged helix 1, GST fusion (KAT6A, Homo sapiens, UniProt Q92794, residues 1-85)
Technique: protein binding microarray
Molecule type: double-stranded DNA, one strand shown
Sample: in vitro
Tested at: not given
Setting: 8-mer, flanks averaged, mean of 2 arrays, mostly near background
Baseline: not given
Direction: higher = stronger binding
Construct (chain): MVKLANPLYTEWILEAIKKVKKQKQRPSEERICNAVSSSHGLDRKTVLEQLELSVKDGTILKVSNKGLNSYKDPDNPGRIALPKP
| Sequence | E-score |
| --- | --- |
| AAAAAATC | -0.124 |
| GAACGGAA | 0.12 |
| AGGGGTGC | -0.0705 |
| AAACAGCA | -0.235 |
| AACTGACA | -0.0746 |
| CTACCCGC | 0.353 |
| GCCGCAGA | 0.262 |
| ACGCCGAT | 0.294 |
| AAAGGAAA | -0.14 |
| ATGGGTTG | -0.15 |
| ACGTCAAT | -0.00699 |
| CGGGTTCA | 0.325 |
| ACTGCCTC | 0.0496 |
| CCTCTAAA | -0.189 |
| CTATACAG | -0.163 |
| AGCGAGAT | 0.101 |
| CCGTGCCG | 0.373 |
| GGCTGCAA | 0.0481 |
| CTCGTTGC | -0.076 |
| CCTTATAC | 0.029 |
| ACCTAGCT | -0.309 |
| CGTTGTCA | 0.0654 |
| CATAAAGG | -0.117 |
| AGTCATCG | -0.075 |
| TACAGCGA | -0.0483 |

Series 5
Target: CCNA2, cyclin fold, Cln2 fusion (human)
Technique: yeast growth competition, sequencing
Sample: yeast
Setting: strong parent motif
Baseline: not given
Direction: higher = stronger binding
Starting sequence: SCAPER docking peptide (human); SNARRSLNFGGST
| Change | normalised enrichment score |
| --- | --- |
| N2K | 6.83 |
| S1F | 6.75 |
| F9C | 0.537 |
| T13A | 6.27 |
| S12W | 5.43 |
| R5P | 0.39 |
| S1K | 6.08 |
| S6K | 6.62 |
| R5K F9L | 1.34 |
| G11K | 7.04 |
| G11H | 5.97 |
| N2V | 5.83 |
| G10H | 5.64 |
| G11M | 6.38 |
| N2T | 6.06 |
| T13L | 6.49 |
| S1L | 6.34 |
| R5N | 0.298 |

Some of these lines once more (series 3):
| Sequence | fluorescence intensity [a.u.] |
| --- | --- |
| TGCGCAACAACTTGCATGGTGGGTGTATGTCTAGAA | 5580 |
| ACCTCAAGTGATGGGTACGTGGGTAGTCAGGCTTCC | 7540 |
| ATGAGAAGCGCAAATGTCGTGATGGCAATAGCCCGG | 4830 |
| CATACCCAACCTTGTCACAAAACTTAAGATATTTGT | 3200 |
| TGTTTACAGCCGAGTCACGGGATATTGGTCTGTGAA | 4780 |
